Results pooled from the literature.
Every numbered part comes from another study and shows a few of its results, in no order.

Study 1 — technique: universal PBM; molecule type: double-stranded DNA, one strand shown; matrix: in vitro; concentration: not given; reading: higher = stronger binding
Target: Sal-like protein 4, full length isoform B (SALL4, Homo sapiens, UniProt Q9UJQ4-2, residues 1-616)
Notes: 8-mer, flanks averaged, mean of replicates
For `CTGCTGGC`, the E-score was -0.332.
With `AGAAACTG` the E-score was -0.194.
`GTCGCCCA` gave an E-score of -0.279.
`AGCTATAA` gave an E-score of 0.3.
`GATGCAAA` gave an E-score of 0.131.
`AGTTGAAT` gave an E-score of 0.151.
The E-score of `ATCTGGGG` is reported as -0.217.
`CAGAACCA` has an E-score of -0.128.

Study 2 — technique: protein-binding microarray; molecule type: double-stranded DNA, one strand shown; matrix: in vitro; concentration: not given; reading: higher = stronger binding
Target: Hepatocyte nuclear factor 3-beta, forkhead domain (FOXA2, Homo sapiens, UniProt Q9Y261, residues 142-269)
Notes: k-mer, scored over probes, only values ≥0.25
Residues (chain): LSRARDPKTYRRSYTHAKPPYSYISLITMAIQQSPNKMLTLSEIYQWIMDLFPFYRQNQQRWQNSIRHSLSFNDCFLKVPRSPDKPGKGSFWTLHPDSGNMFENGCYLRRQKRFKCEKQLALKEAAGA
`CATTACAA` has an E-score of 0.272.
`TATGTAAA` gave an E-score of 0.302.
For `TAATCATA`, the E-score was 0.354.
`CTTATGTA` has an E-score of 0.336.
The E-score of `CACAATAC` is reported as 0.265.
For `TAATAAAA`, the E-score was 0.277.
`ACACAACT` gave an E-score of 0.25.

Study 3 — technique: RNA Bind-n-Seq; molecule type: RNA; matrix: in vitro; concentration: 1 µM; notes: whole 134-nt RNA, ends assumed; with: 150 mM KCl; baseline: input library; reading: higher = stronger binding
Target: Ras GTPase-activating protein-binding protein 1, C-terminal RGG region (G3BP1, Homo sapiens, UniProt Q13283)
Sequence of UniProt Q13283 (whole entry, looked up): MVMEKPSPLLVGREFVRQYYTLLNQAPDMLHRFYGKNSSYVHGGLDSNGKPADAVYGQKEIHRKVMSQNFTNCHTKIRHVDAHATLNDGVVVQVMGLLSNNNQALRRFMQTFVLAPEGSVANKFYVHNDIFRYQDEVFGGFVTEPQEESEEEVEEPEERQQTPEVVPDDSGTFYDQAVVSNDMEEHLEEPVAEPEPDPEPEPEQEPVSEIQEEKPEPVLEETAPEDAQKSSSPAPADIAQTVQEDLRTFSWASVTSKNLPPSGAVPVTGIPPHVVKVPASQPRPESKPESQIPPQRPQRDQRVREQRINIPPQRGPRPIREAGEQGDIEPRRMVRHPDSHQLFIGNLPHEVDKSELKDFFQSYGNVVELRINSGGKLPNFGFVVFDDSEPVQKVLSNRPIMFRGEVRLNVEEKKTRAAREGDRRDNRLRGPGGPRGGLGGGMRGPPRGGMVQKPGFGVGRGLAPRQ
`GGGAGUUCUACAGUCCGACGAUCAGUCCUGUGCUACACAUCGUAUGUACCGAAUCGGGGUGGGGAAAAAAAGGGGAGGGGAAAGUAUUAUGUUACGCCGUUCGGAUCUGCACUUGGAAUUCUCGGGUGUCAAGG` gave a log2 enrichment of 2.32.
For `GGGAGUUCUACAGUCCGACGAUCACCAUGCAGGUGGGCAUCUUUAGGAAGUGGGGCAAGGGGGGGAUAGGGAGGGGGGUAACACUUUGGGAACAGGUGGUCCCAGGUCGUUUCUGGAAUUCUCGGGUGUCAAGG`, the log2 enrichment was -0.92.
For `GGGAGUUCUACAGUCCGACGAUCAAGUCCUGUGCUACACAUCGUAUGUACCGAAUCGGAAAAGGGAAAAGGGGAAAAGGGAAAGUAUUAUGUUACGCCGUUCGGAUCUGCACUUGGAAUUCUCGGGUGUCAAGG`, the log2 enrichment was -1.11.
For `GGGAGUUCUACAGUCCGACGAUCCACAGACAACACGCACCCACACAGACACAGAGGGAAGGGGUUGGGAUGGGGACAGGGUGCACAGCAGGCCGGGGUAGGACCCCAGCCCCUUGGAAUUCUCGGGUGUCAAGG`, the log2 enrichment was -1.23.
For `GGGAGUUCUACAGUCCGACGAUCCCUGUGCUACACAUCGUAUGUACCGAAUCGGGUUUUUUUGGUUUUUUUGGUUUUUUUGGGGAAAGUAUUAUGUUACGCCGUUCGGAUCUGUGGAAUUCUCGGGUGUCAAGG`, the log2 enrichment was -1.85.
The log2 enrichment of `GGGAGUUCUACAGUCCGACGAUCCAAGUCCUGUGCUACACAUCGUAUGUACCGAAUCGGGUUUUUGGGAGGGUUUGGGAAAGUAUUAUGUUACGCCGUUCGGAUCUGCACUUCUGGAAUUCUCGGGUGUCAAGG` is reported as 1.54.
The log2 enrichment of `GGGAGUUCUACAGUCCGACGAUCACCAUGCAGGUGGGCAUCUUUGGGAAGUGGGGCAAGGGGGGGAUAGGGACGGGGGUAACACUUUGGGAACAGGUGGUCCCAGGUCGUUUCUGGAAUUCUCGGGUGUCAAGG` is reported as 2.04.

Other studies, line by line
For `PhoQ, residues 284 288 289 292 302 303 ASTSDA`, the fold induction was 7.51 (PhoP, residues 12 14 15 18 19 GHCSL (Escherichia coli, UniProt P23836); Sort-seq, refers to: YFP reporter; E. coli; PhoQ-PhoP variant library, with: 10 µM Mg2+; baseline: high Mg2+ state, higher = stronger signaling).

For quick reference, copied from above (study 2):
`TATGTAAA` gave an E-score of 0.302.
For `TAATCATA`, the E-score was 0.354.
